Results of several laboratories.
± marks the error that the study gave.

For `COc1ccc([C@@H]2CC(=O)c3c(O)cc(O[C@@H]4O[C@H](CO[C@@H]5O[C@@H](C)[C@H](O)[C@@H](O)[C@H]5O)[C@@H](O)[C@H](O)[C@H]4O)cc3O2)cc1O`, the viability was 60.9% (A549; cell growth or viability, MTS; 50 µg/mL, 48 h).
The SILAC ratio of `O=C(N1CCCC1)n1cc(-c2ccc(-c3ccccc3)cc2)nn1` is reported as 0.88 ± 0.21 (mouse T-cells; N-terminal labeled proteins, N-terminal enrichment proteomics, item: FBXO7; 1 nM, 6 h; relative to: DMSO).
The necrotic cells of `COc1ccc(NC(=O)N/N=C2\CC3(CCN(C)CC3)Oc3ccccc32)cc1` is reported as 3.72% (HCT-116; annexin V-FITC/PI; concentration not given, 24 h).
`CC(Cc1ccc(Cl)cc1)=C(c1ccc(Cl)cc1)c1ccc(OCCN(C)C)cc1` has a GI50 of 3.52 µM (OVCAR-4; cell growth or viability).
Under “early apoptotic cells”, `CS(C)=O.CS(C)=O.[Cl][Cu][Cl].c1ccc(-c2nnc(-c3ccc4c(c3)OCO4)[nH]2)nc1` is recorded as 77.8% (T24; annexin V/PI flow cytometry; 5.3 µM, 24 h).
`COc1cc(CNC(=O)C[C@H](C)CCC=C(C)C)ccc1OCc1cn(-c2ccc([N+](=O)[O-])cc2)nn1` gave a growth percent of 42.1% (UO-31; SRB; 10 µM, 48 h).
For `CO[C@H]1O[C@H](COC(c2ccccc2)(c2ccccc2)c2ccccc2)[C@@H](OS(=O)(=O)c2ccccc2)[C@H](OS(=O)(=O)c2ccccc2)[C@H]1OS(=O)(=O)c1ccccc1`, the inhibition was 3.78% (Ehrlich; cell growth or viability, MTT; 62.5 µg/mL, 24 h).
With `C[C@H](NC(=O)[C@H](Cc1c[nH]c2ccccc12)NC(=O)[C@@H](N)CCCNC(=N)N)C(=O)N[C@@H](Cc1c[nH]c2ccccc12)C(=O)N[C@@H](CCCNC(=N)N)C(=O)N[C@@H](Cc1c[nH]c2ccccc12)C(=O)N[C@@H](CCC(N)=O)C(=O)N[C@@H](Cc1c[nH]c2ccccc12)C(=O)N[C@@H](CCCNC(=N)N)C(N)=O` the viability was 43 ± 6% (MDA-MB-468; MTT; concentration not given, 48 h, 37 °C, 5% FBS; relative to: untreated cells).
`O=C1Nc2ccc(Cl)cc2C1=Cc1c(Cl)[nH]c2c1ccc1ccccc12` has a TGI of 8.91 µM (prostate cancer subpanel of NCI-60; 48 h).
With `CC(=C(c1ccc(O)cc1)c1ccc(Cl)cc1)c1ccc(Cl)cc1` the GI50 was 0.54 µM (Malme-3M; cell growth or viability, SRB).
Under “cleaved PARP level”, `C=C[C@H](OC(C)=O)c1ccc(OC(C)=O)cc1` is recorded as 7.8 fold (MDA-MB-231; Western blot; IC50, 24 h; relative to: untreated).
For `COc1cc(CNC(=O)C[C@H](C)CCC=C(C)C)ccc1OCc1cn(-c2ccc(Br)cc2)nn1`, the growth was 52.1% (NCI/ADR-RES; SRB; 10 µM, 48 h).
For `CC(=O)c1c(C)c2cnc(Nc3ccc(N4CCNCC4)cn3)nc2n(C2CCCC2)c1=O`, the specific productivity was 40 to 45 pg/cell/day (recombinant CHO cell line; perfused bench bioreactor; 10 µM, day 15, added at day 8).
`O=Cc1c(O)ccc2ccccc12`: “log2 fold change” -3.43 (HUVEC; RNA sequencing, item: ORC1; 75 µM, 24 h; relative to: DMSO).
Under “early apoptotic cells”, `CSc1nc(Nc2ccc(/C(C)=N/NC(=O)c3ccc([N+](=O)[O-])cc3[N+](=O)[O-])cc2)c(C#N)c(-c2ccccc2)n1` is recorded as 5.47% (HCT-116; annexin V-FITC/PI flow cytometry; 1.14 µM, 24 h).
With `C[C@H](NC(=O)[C@H](CCC(N)=O)NC(=O)[C@H](Cc1c[nH]c2ccccc12)NC(=O)[C@@H](N)CCCNC(=N)N)C(=O)N[C@@H](CCCNC(=N)N)C(=O)N[C@@H](Cc1c[nH]c2ccccc12)C(=O)N[C@@H](CCC(N)=O)C(=O)N[C@@H](Cc1c[nH]c2ccccc12)C(=O)N[C@@H](CCCNC(=N)N)C(N)=O` the viability was 79 ± 4% (young human fibroblasts primary; MTT; concentration not given, 24 h, 37 °C, 5% FBS; relative to: untreated cells).
`C=CC(OC(C)=O)c1ccc(OC(C)=O)c(OC)c1` (stereo not shown) — result for “p53 protein level”: 3.4 fold (MDA-MB-231; Western blot; IC50, 24 h; relative to: untreated).
`COc1cc(CNC(=O)C[C@H](C)CCC=C(C)C)ccc1OCc1cn(-c2ccccc2[N+](=O)[O-])nn1` gave a growth percent of 85.3% (SK-MEL-28 melanoma cells; SRB; 10 µM, 48 h).
`CCCC(CCC)C(=O)[O][Pt]([NH2])([NH2])([Cl])([Cl])[O]C(=O)C(Cl)Cl` gave a selectivity index of 198 (HEK293 and BCPAP; cytotoxicity, MTT; relative to: IC50 HEK293 over IC50 BCPAP).
For `COc1ccc([C@@H]2CC(=O)c3c(O)cc(O[C@@H]4O[C@H](CO[C@@H]5O[C@@H](C)[C@H](O)[C@@H](O)[C@H]5O)[C@@H](O[C@H]5O[C@H](CO)[C@@H](O)[C@H](O)[C@H]5O)[C@H](O)[C@H]4O)cc3O2)cc1O`, the viability was 52.1% (A549; cell growth or viability, MTS; 50 µg/mL, 72 h).
The GI50 of `COC1CN([C@H]2CC[C@H]([C@@]3(C)Oc4c(Cl)cc(C(=O)NCc5c(SC)cc(C)[nH]c5=O)c(C)c4O3)CC2)C1` is reported as > 1 µM (T24; cell growth or viability, ATP luminescence; 12 days).
With `CC(=O)OC[C@H]1O[C@@H](Sc2sc(C(=O)c3ccc(Br)cc3)c(N)c2-c2nc3ccccc3s2)[C@H](OC(C)=O)[C@@H](OC(C)=O)[C@@H]1OC(C)=O` the growth was 20% (Malme-3M; SRB; 10 µM, 48 h; relative to: untreated).
The growth of `COc1cc(CNC(=O)C[C@H](C)CCC=C(C)C)ccc1OCc1cn(-c2ccc(Cl)c(Cl)c2)nn1` is reported as 36.5% (NCI/ADR-RES; SRB; 10 µM, 48 h).
`CCCCN(CCCC)CC(O)COc1c2ccoc2c(OC)c2oc(CC)cc(=O)c12` (stereo not shown) has an LDH release of 24.6% (HTB-140; 25 µM, 72 h).
For `CC1(CO)CCCC2(C)C1CCC1(C)c3cocc3CCC12` (stereo not shown), mRNA level read “inhibited” (VCaP; inhibitor, qRT-PCR, item: PSA, FKBP5, TMPRSS2; 10 µM, 16 h, androgen-induced transcripts, with: R1881 1 nM).
The phototherapeutic index of `FC(F)(F)c1ccnc(-c2cc(C(F)(F)F)ccn2)c1.FC(F)(F)c1ccnc(-c2cc(C(F)(F)F)ccn2)c1.[Cl-].[Cl-].[Ru+2].c1csc(-c2ccc(-c3ccc(-c4nc5c6cccnc6c6ncccc6c5[nH]4)s3)s2)c1` is reported as 548 (SK-MEL-28; normoxia, with: green light 523 nm).
The mRNA level of `CCN(CC)CC(=O)Nc1cccc(-n2cc(-c3ccc4ccc(-c5cn(-c6cccc(NC(=O)CN(CC)CC)c6)nn5)cc4c3)nn2)c1` is reported as 29.2% (RCC4; qRT-PCR, item: HIF-1α; 5 x IC50; relative to: untreated).
`COc1cc(CNC(=O)C[C@H](C)CCC=C(C)C)ccc1OCc1cn(-c2ccccc2F)nn1` has a growth percent of 10.6% (SNB-75 CNS cancer cells; SRB; 10 µM, 48 h).
`O=C(Cn1c(=O)c(Cc2ccccc2)nc2ccccc21)OCCNCCO` has a mRNA level of 3.19 ± 0.035 fold (HCT-116; qRT-PCR, item: p21; concentration not given, 72 h; relative to: untreated).
`C[C@H](N)C(=O)N[C@@H](Cc1c[nH]c2ccccc12)C(=O)N[C@@H](CCC(N)=O)C(=O)N[C@@H](Cc1c[nH]c2ccccc12)C(=O)N[C@@H](CCCNC(=N)N)C(=O)N[C@@H](Cc1c[nH]c2ccccc12)C(=O)N[C@@H](CCC(N)=O)C(=O)N[C@@H](Cc1c[nH]c2ccccc12)C(=O)N[C@@H](CCCNC(=N)N)C(N)=O` has a viability of 100 ± 1% (young human fibroblasts primary; MTT; concentration not given, 24 h, 37 °C, 5% FBS; relative to: untreated cells).
`O=C(CSc1nc2ccccc2s1)Nc1nonc1[N+](=O)[O-]` — result for mRNA level: “decreased” (Ramos; qRT-PCR, item: Myc-target genes; 15 µM, 8 h).
Under “ROS positive cells”, `COc1ccc(NC(=O)COc2ccc(/C=C/C(C)=N/O)cc2OC)cc1` is recorded as 53.6% (SH-SY5Y; DCFDA flow cytometry; 5 µM, with: amyloid beta 10 µM).
`COc1cc(OC)cc([C@@H]2C[C@H](C)OC(=O)c3c(C(=O)C(F)(F)F)c4ccccn4c32)c1` (relative stereo) has a selectivity ratio of ≥ 24 (MCF-10A; resazurin; relative to: CC50 MCF-10A over IC50 MDA-MB-231).
The selectivity ratio of `COc1ncccc1CN(C(=O)OCc1ccc([N+](=O)[O-])cc1F)[C@H]1[C@@H](C)[C@@H]1c1ccccc1` (racemic) is reported as > 3 (THP-1 cells; colony forming unit; relative to: EC50 wild type over NTR-expressing).
`COc1cc(CNC(=O)C[C@H](C)CCC=C(C)C)ccc1OCc1cn(-c2ccccc2Cl)nn1` gave a growth percent of 69.8% (SK-MEL-28 melanoma cells; SRB; 10 µM, 48 h).
For `CCCC(CCC)C(=O)[O][Pt]([NH2])([NH2])([Cl])([Cl])[O]C(=O)c1ccccc1OC(C)=O`, “IC50 fold lower” read ~10 fold (six human cancer lines; cytotoxicity, MTT; relative to: cisplatin).
`O=C1OCC2=C1C(c1cccc(Br)c1)C1=C(N2)C(=O)c2ccccc2C1=O` (stereo not shown): “late apoptotic cells” 1.99% (SK-LU-1 cells; annexin V/PI; 0.08 µM, 24 h).
The inhibition of `CC(C)(C)C(=O)Nc1ccc2[nH]c(CN3CCC(N(CCCN4CCOCC4)CC4OC(n5cnc6c(N)ncnc65)C(O)C4O)CC3)nc2c1` (stereo not shown) is reported as 56.4% (H460 wild type cells; tumorsphere formation; 5 µM, 7 to 14 days).
`Cc1cc2c(c(=O)o1)C=C1CCC(C(C)CNCc3ccc(O)cc3)CC1O2` (stereo not shown) — result for “reduction of Aβ oligomers”: 80% (MC65; western blot, item: Aβ-OC high molecular weight oligomers; concentration not given, 24 h after tetracycline withdrawal).
With `COCc1nc(C(F)(F)F)[nH]c1-c1cc(C(=O)N2CC(c3ccc(C#N)cc3)C2)c(C)cc1C` the inhibition was 65% (NCI-H520; β-tubulin palmitoylation, acyl-biotin exchange, item: palmitoyl-β-tubulin; concentration not given).
For `Cc1nn(-c2ccc(S(=O)(=O)N[C@H](CO)CC(C)C)cc2)c2nn3nnnc3nc12`, the apoptotic cells was 37 ± 1.4% (HT-29; PI/Hoechst staining; 2 µM, 24 h).
Under “cells with nuclear export of MK5”, `COCC12C(=O)NC3C4(C(OC)CC1O)C1CC5(O)C(OC)C(O)C(OC(C)=O)(C1C5OC(=O)c1ccccc1)C3(O)C(OC)C24` (stereo not shown) is recorded as 20% (PC-12 expressing EGFP-MK5; 20 µM, with: forskolin 30 min).
`CC/C=C\C/C=C\C/C=C\C/C=C\C/C=C\C/C=C\CCC(=O)Nc1ccn(C2OC(CO)C(O)C2(F)F)c(=O)n1` (stereo not shown) has a GI50 of 0.0835 µM (UO-31; cell growth or viability, SRB).
With `CCOC(=O)C1NC(c2ccc[n+](C)c2)C23c4c5c6c7c8c9c(c%10c%11c2c2c4c4c%12c5c5c6c6c8c8c%13c9c9c%10c%10c%11c%11c2c2c4c4c%12c%12c5c5c6c8c6c8c%13c9c9c%10c%10c%11c2c2c4c4c%12c5c6c5c8c9c%10c2c45)C713` (stereo not shown) the CC50 was 5.9 µM (BC-2; cell growth or viability; 24 h).
The growth percent of `COc1cc(CNC(=O)C[C@H](C)CCC=C(C)C)ccc1OCc1cn(-c2ccc(Cl)cc2Cl)nn1` is reported as 96.3% (SK-MEL-28 melanoma cells; SRB; 10 µM, 48 h).
For `COc1ccc(-c2cc(COC3c4cc5c(cc4C(c4cc(OC)c(OC)c(OC)c4)C4C(=O)OCC34)OCO5)on2)cc1` (stereo not shown), the caspase-3/7 activation was 92.3% (MIA PaCa-2; 20 µg/mL, 24 h).
`Cc1nc(C)c(C=[N+]([O-])C(C)(C)C)nc1C` — result for “increase in protein level”: 47% (primary rat midbrain neurons; Western blot, item: SIRT1; 30 µM, with: 20 µM MPP+).
`CC(=O)N1CCC[C@H]1C(=O)N[C@@H](CC/C=C/C(=O)N(C)C)C(=O)N[C@@H](CCNC(=O)CCCCCN1C(=CC=CC=CC2=[N+](C)c3ccc(S(=O)(=O)[O-])cc3C2(C)C)C(C)(C)c2cc(S(=O)(=O)O)ccc21)C(=O)N1CCC[C@H]1C(=O)N[C@@H](Cc1ccccc1)C(N)=O` — result for “Pearson colocalization coefficient”: 0.03 (NRK cells; item: Rab7; 90 min, with: α2-macroglobulin).
Under “cells with depolarised mitochondria”, `Cc1c(C)c(C)[c-](C)c1C.[C-]#[O+].[C-]#[O+].[C-]#[O+].[Cl-].[Cl-].[Cl-].[Ir+3].[Re+].c1cnc(-c2ncccn2)nc1` is recorded as 62.2% (MDA-MB-468; JC-1 flow cytometry; 50 µM).
For `COc1cc2c(C=C3C(=O)Nc4ccccc43)c[nH]c2cc1C`, the TGI was 12.9 µM (prostate cancer subpanel of NCI-60; 48 h).
The growth percent of `COc1cc(CNC(=O)C[C@H](C)CCC=C(C)C)ccc1OCc1cn(-c2cccc(C(F)(F)F)c2)nn1` is reported as 65.2% (SNB-75 CNS cancer cells; SRB; 10 µM, 48 h).
`CCCC(NC(=O)C(C#N)=Cc1nc(Cl)ccc1Cl)c1ccc(OCCN2CCOCC2)cc1` (stereo not shown): “overlap with Myc targets” 11.7% (Ramos; LFQ mass spectrometry; 10 µM, 8 h).
